# Published values of several laboratories.
# ± marks the error that the study gave.
Compound,target,assay,system,conditions,how to read,endpoint,value
COC(=O)[C@H](C)NC(=O)[C@H](C)NC(=O)[C@H](CCCCNC(C)=S)NC(=O)c1ccc(C(=O)c2ccc(OC/C=C/Cn3cc(COCCOCCOc4cccc5c4C(=O)N(C4CCC(=O)NC4=O)C5=O)nn3)cc2)cc1 (stereo partly shown),"NAD-dependent protein deacetylase sirtuin-2 (SIRT2, Homo sapiens, UniProt Q8IXJ6)","protein degradation, degrader, western blot, refers to: SIRT2",HEK293,"25 µM, 12 h",,protein level,decreased
CC[C@H](C)[C@H](NC(C)=O)C(=O)N[C@H]1CSSC[C@@H](C(=O)N[C@H](C(N)=O)[C@@H](C)O)NC(=O)[C@H](CCCNC(=N)N)NC(=O)[C@H](Cc2c[nH]cn2)NC(=O)[C@H](C)NC(=O)CNC(=O)[C@H](Cc2c[nH]c3ccccc23)NC(=O)[C@H](CC(=O)O)NC(=O)[C@H](CCC(N)=O)NC(=O)[C@H](Cc2ccc(O)cc2)NC(=O)[C@H](C(C)C)NC1=O,"Complement C3, C3b fragment (Homo sapiens, UniProt P01024)",SPR,,"pH 7.4, 25 °C",,koff,0.151 ± 0.022 s⁻¹
O=C(COCc1ccccc1)N[C@@H](Cc1cn(CCNC(=O)c2ccc(S[C@@H]3O[C@H](CO)[C@H](O)[C@H](O)[C@H]3O)cc2)nn1)C(=O)NCCO,"PA-I galactophilic lectin (lecA, Pseudomonas aeruginosa, UniProt Q05097)","binding, isothermal titration calorimetry",,25 °C,,−TΔS,4.95 ± 0.0717 kcal/mol
CC(C)/C=C(\C#N)C(=O)N1CCC[C@@H](n2nc(-c3ccc(Oc4ccccc4)cc3)c3c(N)ncnc32)C1,"Tyrosine-protein kinase BTK (BTK, Homo sapiens, UniProt Q06187)",,,concentration not given,,receptor occupancy,decreased
CC[C@H](C)[C@@H]1NC(=O)[C@H](CC(N)=O)NC(=O)[C@H](Cc2ccc(O)cc2)NC(=O)[C@H](Cc2c[nH]c3ccccc23)NC(=O)[C@H](C)NC(=O)[C@@H](N)CSSC[C@@H]2NC(=O)[C@@H](CSC[C@@H](C(=O)N[C@H]3C(=O)N[C@@H](CC(C)C)C(=O)N[C@H]4C(=O)N[C@@H](C(C)C)C(=O)N[C@@H](CCC(=O)O)C(=O)N[C@@H](CS[C@H]3C)C(=O)N[C@@H](CCSC)C(=O)N3CCC[C@H]3C(=O)N[C@@H](CO)C(=O)N[C@H](C(=O)N[C@@H](CC(N)=O)C(=O)O)CS[C@H]4C)NC(=O)[C@H](Cc3ccc(O)cc3)NC(=O)[C@H](C)NC(=O)CNC(=O)[C@H](CCCCN)NC(=O)[C@H](CC(N)=O)NC(=O)CNC(=O)[C@H](CC(C)C)NC(=O)[C@H](CCCNC(=N)N)NC2=O)NC1=O,PBP1b,transglycosylation,,6 µM,,lipid II level fully inhibited,3 µM
O[C@@H]1[C@@H](O)[C@H](O[C@@H]2OC[C@@H](O)[C@H](O)[C@H]2O)C[C@H]2O[C@@H]12,"endo-1,4-beta-xylanase (Aspergillus aculeatus, UniProt A0A1L9WG58)",covalent inhibitor,,"pH 5.0, together with: 4MU-beta-D-xylobioside",,kinact/KI,4330 M⁻¹ s⁻¹
CNc1ccccc1C(=O)O[C@H]1C[C@H](n2cnc3c(N)ncnc32)O[C@@H]1COP(=O)(O)OP(=O)(O)O,"Unconventional myosin-Va (Gallus gallus, UniProt Q02440, D297C/G292C/I296C/S293C/V295G)",FRET,compound complex,"25 °C, together with: 2 mM MgCl2",,donor-acceptor distance,20 Å
CSCC[C@H](NC(C)=O)C(=O)NCC(=O)NCC(=O)N[C@@H](CCC(=O)O)C(=O)N[C@@H](CC(C)C)C(=O)N[C@H](C(=O)N[C@H](C(=O)NCC(=O)N[C@@H](CC(C)C)C(=O)NCC(=O)N[C@@H](C)C(=O)N[C@@H](CC(C)C)C(=O)N[C@@H](CCCNC(=N)N)C(=O)N[C@@H](CCCNC(=N)N)C(=O)N[C@@H](CCCNC(=N)N)C(=O)N[C@@H](CCCCN)C(=O)N[C@@H](CCCNC(=N)N)C(=O)N[C@@H](CC(C)C)C(=O)N[C@@H](CC(C)C)C(=O)N[C@@H](CCC(=O)O)C(=O)N[C@@H](CCC(N)=O)C(=O)N[C@@H](CCC(=O)O)C(=O)N[C@@H](CCCCN)C(=O)N[C@@H](CCCNC(=N)N)C(N)=O)[C@@H](C)O)C(C)C,"Kcnma1 (Mus musculus, UniProt Q08460)","BK current, blocker, inside-out patch",,"25 µM, +50 mV",,blocking time constant,21 ms
CC1(C)CCN(Cc2ccc(C(=O)NC[C@]3(O)CCCN(c4cc(NCc5ccccc5)ncn4)C3)c(O)c2)CC1,"Platelet-derived growth factor receptor alpha (PDGFRA, Homo sapiens, UniProt P16234)","kinase activity, radiometric",,"10 µM, together with: 10 µM ATP",,remaining activity,88%
CC[C@H](C)[C@H](NC(=O)[C@@H](NC(=O)[C@H](CS)NC(=O)[C@H](CCSC)NC(C)=O)[C@@H](C)O)C(=O)N[C@@H](CC(=O)O)C(=O)N[C@@H](Cc1ccc(F)cc1)C(=O)N[C@@H](CC(=O)O)C(=O)N[C@@H](CCC(=O)O)C(=O)N[C@@H](Cc1ccc(O)cc1)C(=O)N[C@@H](CCCNC(=N)N)C(=O)N[C@@H](Cc1ccc(F)cc1)C(=O)N[C@@H](CCCNC(=N)N)C(=O)N[C@@H](CCCCN)C(=O)N[C@H](C(N)=O)[C@@H](C)O,human BRCA1 BRCT N1774A,fluorescence polarization,,"concentration not given, FAM-labelled compound","reference: wild-type BRCA1 BRCT, higher = weaker binding",binding affinity fold reduction,26 fold

# Repeated from above:
Compound,target,assay,system,conditions,how to read,endpoint,value
CC[C@H](C)[C@H](NC(C)=O)C(=O)N[C@H]1CSSC[C@@H](C(=O)N[C@H](C(N)=O)[C@@H](C)O)NC(=O)[C@H](CCCNC(=N)N)NC(=O)[C@H](Cc2c[nH]cn2)NC(=O)[C@H](C)NC(=O)CNC(=O)[C@H](Cc2c[nH]c3ccccc23)NC(=O)[C@H](CC(=O)O)NC(=O)[C@H](CCC(N)=O)NC(=O)[C@H](Cc2ccc(O)cc2)NC(=O)[C@H](C(C)C)NC1=O,"Complement C3, C3b fragment (Homo sapiens, UniProt P01024)",SPR,,"pH 7.4, 25 °C",,koff,0.151 ± 0.022 s⁻¹
